Measurements of several laboratories.
Lines come from different studies, so protocols differ. Values joined by “and” are separate records of one study, mostly repeats; a detail may differ. Numbers after ± are the reported error.

Structure (SMILES)	test	test system	conditions	scale	measurement	value
O=C(c1ccc(F)c(F)c1Nc1ccc(I)cc1F)N1CC(O)([C@@H]2CCCCN2)C1	–	human patients	oral, dose not given, dose escalation, tablet	–	treatment-related adverse events	89%
O.O.O.O.O.O.[Cl-].[Cl-].[Co+2]	–	rat female, urine	oral, 10 mg/kg single, day 2	–	urinary cobalt creatinine-corrected	0.0545 µg/µmol creatinine
C[C@@H](NC(=O)N1C(=O)[C@H](Cc2ccnc(N)c2)[C@H]1C(=O)O)C1CCCCC1	–	healthy adult Chinese volunteers	continuous intravenous infusion, 2.25 mg/kg/h, 5-day infusion, CTCAE 5.0 grading	–	incidence of AEs leading to death	0%
O=C(Nc1ccccc1)C1CCN(C(=O)Oc2cccnc2)CC1	–	healthy women	oral, 20 mg, 7 days	–	adverse event Rash	7.1%
COc1ccc(-c2c(-c3ccc(C#N)c(F)c3)nc(N3CCC(N)CC3)n(C)c2=O)cc1F	measured: Dysgeusia	relapsed/refractory marginal zone lymphoma patients	oral, 60 mg, grade 3 to 4, dose expansion	–	treatment-related adverse event incidence	0%
CC[C@H](C)[C@H](NC(=O)[C@H](CCCCN)NC(=O)[C@H](CCC(=O)O)NC(=O)[C@H](CCCCN)NC(=O)[C@H](CO)NC(=O)[C@H](CCCCN)NC(=O)[C@H](CCCNC(=N)N)NC(=O)[C@H](Cc1ccccc1)NC(=O)[C@H](Cc1ccccc1)NC(=O)[C@H](CC(=O)O)NC(=O)CNC(=O)[C@H](CC(C)C)NC(=O)[C@@H](N)CC(C)C)C(=O)NCC(=O)N[C@@H](CCCCN)C(=O)N[C@@H](CCC(=O)O)C(=O)N[C@@H](Cc1ccccc1)C(=O)N[C@@H](CCCCN)C(=O)N[C@@H](CCCNC(=N)N)C(=O)N[C@H](C(=O)N[C@H](C(=O)N[C@@H](CCC(N)=O)C(=O)N[C@@H](CCCNC(=N)N)C(=O)N[C@H](C(=O)N[C@@H](CCCCN)C(=O)N[C@@H](CC(=O)O)C(=O)N[C@@H](Cc1ccccc1)C(=O)N[C@@H](CC(C)C)C(=O)N[C@@H](CCCNC(=N)N)C(=O)N[C@@H](CC(N)=O)C(=O)N[C@@H](CC(C)C)C(=O)N[C@H](C(=O)N1CCC[C@H]1C(=O)N[C@@H](CCCNC(=N)N)C(=O)N[C@H](C(=O)N[C@@H](CCC(=O)O)C(=O)N[C@@H](CO)C(=O)O)[C@@H](C)O)C(C)C)[C@@H](C)CC)C(C)C)[C@@H](C)CC	LC-MS	50% pooled human serum	40 µM, 30 min, pH 7.5, 37 °C	relative to: 0 h	remaining intact peptide	5.05% and 4.55% and 6.97%
COc1cc2c(Oc3ccc4[nH]c(C)cc4c3F)ccnc2cc1OCC1(N)CC1	–	paediatric refractory sarcoma patients	10 mg	–	Hematuria incidence	0%
N#C[C@@H]1CC(F)(F)CN1C(=O)CNC(=O)c1ccnc2ccc(OCCCN3CCN(C(=O)CN4CCN(CC(=O)[O-])CCN(CC(=O)[O-])CC4)CC3)cc12.[18F-].[Al+3]	–	healthy rat, small intestine	iv, 2 h	–	tissue uptake	3.69 ± 0.51 %ID/g
CO[C@H]1C[C@@H]2CC[C@@H](C)[C@@](O)(O2)C(=O)C(=O)N2CCCC[C@H]2C(=O)O[C@H]([C@H](C)C[C@@H]2CC[C@@H](OC(=O)NCCOCCOCCOCCOCCOCCOCCOCCOCCC(=O)N3CCc4cc(Cn5nc(-c6ccc7oc(N)nc7c6)c6c(N)ncnc65)ccc4C3)[C@H](OC)C2)C[C@@H](O)[C@H](C)/C=C(\C)[C@@H](O)[C@@H](OC)C(=O)[C@H](C)C[C@H](C)/C=C/C=C/C=C/1C	–	patients with advanced solid tumours	intravenous, 8 mg weekly, any grade	–	vomiting incidence	31.3%
C[C@]1(CO)Cc2ncn(-c3ccc(C#N)c(Cl)c3)c2C(=O)O1	–	human	80 mg multiple doses, fasted	–	subjects with any TEAE	77.8%
CC(C)(C)c1cc(-n2nc3ccccc3n2)c(O)c(C(C)(C)C)c1	–	human aged 11-16 years	concentration not given, spray sunscreen, mean	–	daily dermal exposure dose	3.8 ng/kg/day
O=c1ccc2ncc(=O)n3c2n1C[C@H]3CN1CCC(NCc2cc3c(cn2)OCCC3)CC1	–	healthy human participants, urine	oral, 1500 mg, arithmetic mean, compound alone	–	amount excreted in urine (Ae)	317 mg
O=C1Nc2cc3[nH]nc(-c4ccncc4)c3cc2CN1Cc1ccccc1	CTCAE v4.03	advanced solid tumour patients	intravenous, 7.2 mg/kg, schedules 1/2	–	patients with ≥1 TEAE	100%
CCc1ccc(CC/C=C/c2ccc3c(c2)C(=O)CC3)cc1	–	Sprague-Dawley rat, female, blood	oral, 30 mg/kg/day, 14 days	–	MCH	19.3 pg

Repeated from above:
Structure (SMILES)	test	test system	conditions	scale	measurement	value
C[C@@H](NC(=O)N1C(=O)[C@H](Cc2ccnc(N)c2)[C@H]1C(=O)O)C1CCCCC1	–	healthy adult Chinese volunteers	continuous intravenous infusion, 2.25 mg/kg/h, 5-day infusion, CTCAE 5.0 grading	–	incidence of AEs leading to death	0%
